Measurements collected from several papers.
Compare with care: the assays were run in different laboratories. ± marks the error that the study gave.

Compound | assay | system | conditions | how to read | quantity | value
O=S(=O)(Nc1ccccc1)c1ccc(NC(=S)Nc2ccccc2)cc1 | item: CK | female mouse, blood | oral, 5 mg/kg daily, 14 days |  | serum enzyme activity | 4840 U/L
[O-][S+]1CCc2nc(N3CCC(c4ncc(Cl)cn4)CC3)nc(NC3(CO)CCC3)c21 (centres unmarked) | item: abdominal distension | healthy male humans | 48 mg single dose |  | adverse event incidence | 16.7%
CC[C@H](C)[C@H](NC(=O)[C@H](CCCCN)NC(=O)[C@H](CCC(=O)O)NC(=O)[C@H](CCCCN)NC(=O)[C@H](CO)NC(=O)[C@H](CCCCN)NC(=O)[C@H](CCCNC(=N)N)NC(=O)[C@H](Cc1ccccc1)NC(=O)[C@H](Cc1ccccc1)NC(=O)[C@H](CC(=O)O)NC(=O)CNC(=O)[C@H](CC(C)C)NC(=O)[C@@H](N)CC(C)C)C(=O)NCC(=O)N[C@@H](CCCCN)C(=O)N[C@@H](CCC(=O)O)C(=O)N[C@@H](Cc1ccccc1)C(=O)N[C@@H](CCCCN)C(=O)N[C@@H](CCCNC(=N)N)C(=O)N[C@H](C(=O)N[C@H](C(=O)N[C@@H](CCC(N)=O)C(=O)N[C@@H](CCCNC(=N)N)C(=O)N[C@H](C(=O)N[C@@H](CCCCN)C(=O)N[C@@H](CC(=O)O)C(=O)N[C@@H](Cc1ccccc1)C(=O)N[C@@H](CC(C)C)C(=O)N[C@@H](CCCNC(=N)N)C(=O)N[C@@H](CC(N)=O)C(=O)N[C@@H](CC(C)C)C(=O)N[C@H](C(=O)N1CCC[C@H]1C(=O)N[C@@H](CCCNC(=N)N)C(=O)N[C@H](C(=O)N[C@@H](CCC(=O)O)C(=O)N[C@@H](CO)C(=O)O)[C@@H](C)O)C(C)C)[C@@H](C)CC)C(C)C)[C@@H](C)CC | LC-MS | buffer with trypsin | 40 µM, 720 min, pH 7.5, 37 °C | baseline: 0 h | remaining intact peptide | 0%
CC(C)[C@@H]1NC(=O)CNC(=O)[C@H](CC(N)=O)NC(=O)[C@H](CCCNC(=N)N)NC(=O)[C@H](Cc2ccc(O)cc2)NC(=O)[C@H](C(C)C)NC(=O)[C@@H](NC(=O)[C@@H](NC(=O)[C@H](CC(N)=O)NC(=O)[C@H](Cc2c[nH]c3ccccc23)NC(=O)[C@H](C)NC(=O)[C@H](Cc2ccccc2)NC(=O)CN)C(C)C)CSSC[C@@H](C(=O)N[C@@H](Cc2cnc[nH]2)C(=O)N[C@@H](CCCNC(=N)N)C(=O)N[C@@H](CCCNC(=N)N)C(=O)N[C@@H](C)C(=O)N[C@@H](CC(N)=O)C(N)=O)NC(=O)[C@H](C(C)C)NC(=O)[C@H](CCCNC(=N)N)NC1=O |  | ICR mice, serum | intraductal mammary, 5 mg/kg, day 5 |  | phosphorus | 3.13 ± 0.24 mmol/L
CC(=O)N(C)[C@H]1CCN(C(=O)c2cnc3c(c2)C[C@](C)(c2ccc(F)cc2)N3)C1 | item: diarrhoea | human | oral, dose not given, together with: midazolam |  | adverse event duration | 6 days
S=c1[nH]c(CCc2ccccc2)no1 |  | human plasma |  |  | fraction unbound | 0.01
COc1ncccc1-c1cnn2ccc(N3CCN(C(=O)OC(C)C)CC3)nc12 |  | rat, CCI cold allodynia model, plasma | oral, 3 mg/kg, 240 min |  | drug concentration | 300 nM
O=C1Nc2cc3[nH]nc(-c4ccncc4)c3cc2CN1Cc1ccccc1 | CTCAE v4.03 | advanced solid tumour patients | intravenous, 4.8 mg/kg, schedules 1/2 |  | patients with back pain | 0%
NCCCC[C@@H]1NC(=O)[C@@H](Cc2c[nH]c3ccccc23)NC(=O)[C@H](c2ccccc2)NC(=O)[C@@H]2C[C@@H](OC(=O)NCCN)CN2C(=O)[C@H](Cc2ccccc2)NC(=O)[C@H](Cc2ccc(OCc3ccccc3)cc2)NC1=O |  | healthy human volunteers | 1950 µg twice daily |  | subjects with adverse event Headache | 18%
O=C(c1ccc(F)c(F)c1Nc1ccc(I)cc1F)N1CC(O)([C@@H]2CCCCN2)C1 |  | patients aged 6 to sample A years | oral, dose not given |  | SAE leading treatment withdrawal | 0%
CN[C@@H](C)C(=O)N[C@H]1CN(S(=O)(=O)c2cccc(S(=O)(=O)N3CC[C@H]4CC[C@@H](C(=O)NC(c5ccccc5)c5ccccc5)N4C(=O)[C@@H](NC(=O)[C@H](C)NC)C3)c2)CC[C@H]2CC[C@@H](C(=O)NC(c3ccccc3)c3ccccc3)N2C1=O |  | patients with advanced solid tumours | 30 mg, phase I monotherapy |  | treatment-related facial nerve disorder incidence | 0%
O=C(Nc1ccc2c(c1)B(O)OC2)c1cccc(OCc2c(Cl)cccc2Cl)c1 | PAMPA |  | 200 µM, 5 h, pH 7.4 |  | membrane retention | 10.3%
CO[C@H]1C[C@@H]2CC[C@@H](C)[C@@](O)(O2)C(=O)C(=O)N2CCCC[C@H]2C(=O)O[C@H]([C@H](C)C[C@@H]2CC[C@@H](OC(=O)NCCOCCOCCOCCOCCOCCOCCOCCOCCC(=O)N3CCc4cc(Cn5nc(-c6ccc7oc(N)nc7c6)c6c(N)ncnc65)ccc4C3)[C@H](OC)C2)C[C@@H](O)[C@H](C)/C=C(\C)[C@@H](O)[C@@H](OC)C(=O)[C@H](C)C[C@H](C)/C=C/C=C/C=C/1C |  | advanced solid tumour patients | intravenous, dose not given, grade ≥3, all doses |  | incidence of TEAE | 68.4%
CC(C)[C@@H]1CC[C@@H](C)C[C@@H]1O | acute oral toxicity OECD | Swiss albino mice, serum | oral, 300 mg/kg |  | aspartate aminotransferase | 53.8 ± 4.59 U/L

Excerpt of the above:
Compound | assay | system | conditions | how to read | quantity | value
O=S(=O)(Nc1ccccc1)c1ccc(NC(=S)Nc2ccccc2)cc1 | item: CK | female mouse, blood | oral, 5 mg/kg daily, 14 days |  | serum enzyme activity | 4840 U/L
O=C1Nc2cc3[nH]nc(-c4ccncc4)c3cc2CN1Cc1ccccc1 | CTCAE v4.03 | advanced solid tumour patients | intravenous, 4.8 mg/kg, schedules 1/2 |  | patients with back pain | 0%
